Published values gathered from unrelated publications.
Each numbered part is a random draw from the data of one study; scales do not carry over between parts.

Set 1 — technique: RNA Bind-n-Seq; molecule type: RNA; medium: in vitro; tested at: 365 nM; reference: no-protein control; direction: higher = stronger binding
Target: RNA binding protein fox-1 homolog 2, RRM domain, GST-SBP tag (RBFOX2, Homo sapiens, UniProt O43251-10, residues 100-194)
Notes: natural RNA segment, single round, ends assumed
Construct (chain): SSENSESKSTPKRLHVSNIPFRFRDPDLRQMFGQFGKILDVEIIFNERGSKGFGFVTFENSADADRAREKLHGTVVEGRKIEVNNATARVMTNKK
Oligonucleotide	RBNS enrichment (R)
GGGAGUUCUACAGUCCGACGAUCGCCAGUAGGCAUUCUGUACCAACUUCUAAUAGAAAUGAGGCAAGGACAAACUUGGAUCAAGAGGACCCAUUUGGGUGAGGGACCAGGUGGUUUCCAAUCCAGUGUGGACAUGGAAUUCUCGGGUGCCAA	0.491
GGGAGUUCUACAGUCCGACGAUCCUUUUAAGGUGUUGGGCAUGGAACCCCAGGCCUUACCUGCUUGGCAAGUGCUUUACCCCCGAACUACACCUGAAGCUCCAUUCCUUGUCCCUUCUGCACCAUUUAAAGGUUGGAAUUCUCGGGUGCCAA	1.85
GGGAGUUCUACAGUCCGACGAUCUCCUCCUUGUCCUAGUUACUGCCUAUGGAGGCAGUGUUUAGAUCAAGAAGGCCUCUCUUGCUCCCAAGGGCCCUCACCAGAGGCCAGGGCUGCCAGUCACUGGUCUGGGGUGGAAUUCUCGGGUGCCAA	0.16
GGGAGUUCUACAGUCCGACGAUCCACAGUCUCUCCACCUUUGCUUCUGAAUUCUUGUUUUUGAGCAAUAAACAGAAAAUCGCCACUUGUAUUGGGCCGGUGGAGUGUGGGGAGGUGGUCACCGAGCACUGGACUGGAAUUCUCGGGUGCCAA	0.69
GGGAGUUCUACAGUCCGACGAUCCUUCUGAGUCUCUCCAGCGACCUGGGGCCCCUGAGGGCCCGAGGAGCUGAUAAAUAAGGGCUGAGGCAAGUGACUCCUUAGAUCAGCACUGACUGAACGAAAGCCAGGCAUGGAAUUCUCGGGUGCCAA	0.26
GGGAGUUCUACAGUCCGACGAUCCUGAUUUUGCCACAACCUGGAUAUUGAAGCUAUCCAAGCUUUUGAAAUAAAAUUUAAAAACCCCCAAGCCUGGGUGAGUGUGGGAUAUGCUGUGUGAGACCUCUUGCUCAUGGAAUUCUCGGGUGCCAA	0.704
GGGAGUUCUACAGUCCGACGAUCUCACCGUGACUGCAGUUCCUGCCCCCAUUCUCUUGGGGUCAGGGAGGGGCUGGGAAGGGCUACUGAAGGCCCCAUUCUCCCACAGGAUGGUGAGGCUGGGAGGAGGAAGAUGGAAUUCUCGGGUGCCAA	0.443
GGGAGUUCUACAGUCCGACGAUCAGAUGCACAAUCCUUUCCAACCUACAACUUCCUCAAAAUCCAGAGCCAGCCAAAGGAUCAAUGAAGGAUCAAGGUUGCCAGGCAAAGGUUGAGGAAGAAUGCCUGACUCAUGGAAUUCUCGGGUGCCAA	0.494
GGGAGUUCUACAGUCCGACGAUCCCUCACCAAGAUAAUUCUGUACAGUGACUAGCAGAUCCUGGCCUAGGGUGGCUCAGCCGGUGUUUUCUAGAGUCCUUGUAUUAUAUACUGUCAACUCGUAUGCUGGGGGCUGGAAUUCUCGGGUGCCAA	0.808
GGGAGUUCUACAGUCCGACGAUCUGCAGUACUGAGUAUGGUGCUUGCUCUUUCACUUAACUGAUAAGAGGGACAUGCCUACUAGGAGUUUUUAAUGAUGUGGUAUUUAAAGUAUUGUCUCUUAGUUAAGUAUGUGGAAUUCUCGGGUGCCAA	0.665
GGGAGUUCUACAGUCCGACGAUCAGUGGCUGUUCUAGGCAUAGCCCUCCCUGAACUAGAAAGGAGAGUAACCAGUUUGCUAUGCUGCAUCUAACCAGACACACCUGACUUAGUAGUAACUCUAAGAACCCUUAUGGAAUUCUCGGGUGCCAA	0.558
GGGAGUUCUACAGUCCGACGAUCCUGGGCCCCUAACCUGUCAGUUCACCCAUCUAGACCAGAGUCUGUAGCCAGACCUGGCCCACUGCCUUUUUUGUAAGGCCCUUGAGAGCCUUCCUUCCUUUCUCUUUCUUUGGAAUUCUCGGGUGCCAA	0.767

Set 2 — technique: universal PBM; molecule type: double-stranded DNA, one strand shown; medium: in vitro; tested at: 600 nM; direction: higher = stronger binding
Target: Sal-like protein 4, full length isoform A (SALL4, Homo sapiens, UniProt Q9UJQ4, residues 1-1053)
Chain of UniProt Q9UJQ4 (whole entry, looked up): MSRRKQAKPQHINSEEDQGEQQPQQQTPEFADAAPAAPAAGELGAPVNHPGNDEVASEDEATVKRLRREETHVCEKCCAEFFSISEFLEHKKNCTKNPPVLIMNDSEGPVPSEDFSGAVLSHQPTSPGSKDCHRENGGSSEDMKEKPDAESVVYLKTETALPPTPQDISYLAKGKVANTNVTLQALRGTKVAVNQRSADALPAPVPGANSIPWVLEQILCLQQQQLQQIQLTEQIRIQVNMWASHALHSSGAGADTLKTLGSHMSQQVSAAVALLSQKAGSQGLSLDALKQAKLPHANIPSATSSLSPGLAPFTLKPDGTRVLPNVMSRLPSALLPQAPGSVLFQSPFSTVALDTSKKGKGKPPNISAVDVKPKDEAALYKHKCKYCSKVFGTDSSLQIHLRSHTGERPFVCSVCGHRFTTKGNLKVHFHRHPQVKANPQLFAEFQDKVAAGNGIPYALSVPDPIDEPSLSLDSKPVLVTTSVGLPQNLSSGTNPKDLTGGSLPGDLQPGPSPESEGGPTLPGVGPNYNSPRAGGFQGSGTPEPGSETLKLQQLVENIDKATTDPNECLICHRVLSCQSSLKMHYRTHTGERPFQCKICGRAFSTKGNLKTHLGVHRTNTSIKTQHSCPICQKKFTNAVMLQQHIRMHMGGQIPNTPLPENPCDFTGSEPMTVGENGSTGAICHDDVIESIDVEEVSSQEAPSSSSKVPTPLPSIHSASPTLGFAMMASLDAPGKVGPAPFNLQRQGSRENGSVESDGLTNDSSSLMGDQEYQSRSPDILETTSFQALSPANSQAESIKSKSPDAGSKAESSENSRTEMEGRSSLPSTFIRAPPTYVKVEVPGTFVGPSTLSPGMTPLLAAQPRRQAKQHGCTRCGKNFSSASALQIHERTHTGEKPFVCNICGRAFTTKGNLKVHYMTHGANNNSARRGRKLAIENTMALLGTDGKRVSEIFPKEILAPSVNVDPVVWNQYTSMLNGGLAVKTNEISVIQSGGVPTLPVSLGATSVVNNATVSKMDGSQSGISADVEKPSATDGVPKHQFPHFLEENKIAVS
Notes: 8-mer, flanks averaged, mean of replicates
Oligonucleotide	E-score
AGCCTCGG	-0.339
GTCTATCA	0.184
CCACCCCA	-0.234
CTTTCAGA	0.115
GAGTCTGC	-0.236
CTTGCGCC	-0.22
TGATCACA	0.0588
ATTGCAGA	0.216
ATGTCCTA	0.026
CCGCGCGA	-0.184
CGAACATC	-0.0195
ATCGAAGA	0.247
AGAGTATA	0.192
ACTCCTAA	-0.00126
ACAATCAC	0.112
CCTCGTTC	-0.198

Set 3 — technique: EMSA with sequencing; molecule type: double-stranded DNA, one strand shown; medium: in vitro; tested at: 10 and 20 nM; reference: negative control set to 0; direction: higher = stronger binding
Target: Hepatocyte nuclear factor 3-alpha (Foxa1, Mus musculus, UniProt P35582, residues 1-468, full length assumed)
Notes: whole designed probe, mean of two concentrations, ends assumed
Target sequence (chain): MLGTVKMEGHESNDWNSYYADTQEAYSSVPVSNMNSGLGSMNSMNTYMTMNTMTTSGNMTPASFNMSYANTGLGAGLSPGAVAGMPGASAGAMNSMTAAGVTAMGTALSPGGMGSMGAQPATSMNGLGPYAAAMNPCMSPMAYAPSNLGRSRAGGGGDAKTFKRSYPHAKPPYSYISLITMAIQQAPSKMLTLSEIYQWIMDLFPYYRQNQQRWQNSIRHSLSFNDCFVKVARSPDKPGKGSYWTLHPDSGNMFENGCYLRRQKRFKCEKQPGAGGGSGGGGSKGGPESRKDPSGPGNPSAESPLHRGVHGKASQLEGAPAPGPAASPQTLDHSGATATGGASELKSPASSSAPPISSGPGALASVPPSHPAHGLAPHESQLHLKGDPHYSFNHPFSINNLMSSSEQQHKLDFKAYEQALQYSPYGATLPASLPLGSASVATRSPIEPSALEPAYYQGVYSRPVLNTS
Oligonucleotide	normalised bound fraction
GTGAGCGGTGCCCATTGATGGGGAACATCTTCCCCCTCTTCCTTGCCCCACCAGCTCACCTACGGGGGTTATTTGCAGATAGGAAAATAAATAAAGCCGGCATTCGTTAACCCTCTTCACGCGCATACTGCTGTTTGCTCTGGATGAATCATGGTCCTTTGGCGAGGCGTGGCTCCGGGAGAGCAAAGCACCGTGTCAGGGCCATGATCCGGGGTGGCCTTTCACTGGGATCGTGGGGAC	0.343 ratio
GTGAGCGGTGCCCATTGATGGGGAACAGGAGATGCCCTTGCCCCTCCTCTCTGGTGACTCGGGGACACAGTGCCCTTCCCTAGGGAACAGACTTCAAACCCAGCTAAGACAGGGCCCCTGTTTACTCAGCAGAGTAGGCAAGAAAGTAACAGCTAGGTAGTGCCACACAACACTGCCTCATAAATCATTAGCCGTGTATGAGCTAGAACCACCAGAGAGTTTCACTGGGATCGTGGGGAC	0.267 ratio
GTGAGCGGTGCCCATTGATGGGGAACCTTTACCCTCCATGTTACAGGATTTTTTAAAAGAGTATCATTATATACAAAAAGTTAGAGTTCGCTGGTTAGAATGAGAACCATTCAAGGCAAAGTAAACATAAACTCTCCTGTCCCAAAGGGTGTTAACTAGGTCCGCTTTCATGTGCATCAGACGATACACCTATAGCAAGCACACACAGCAGTGCTAGGCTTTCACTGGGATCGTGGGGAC	0.419 ratio
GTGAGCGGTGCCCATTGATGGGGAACGACTTTTACACAGGCATCATGGGAGTAAGCCCAAGATATTTTCTCACACTTGATTCCAGGCATGTGGGGTTTGGTTTCTTGATCAAATATCTGTGTTTGCTCTGTTTACAAGTATCTGATGAGCAAAACCAACAGAGGTGCTCCAGACAGGCTGGCTGTGCTGATCCCTTGGAAAAGAATTAAACAAAACCCATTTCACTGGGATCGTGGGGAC	0.237 ratio
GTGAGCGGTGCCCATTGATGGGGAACAGGGATGTAGACAGAGAGGCAGTTTGAATAATTTTGGAGTACATTTTACTTTAGTTTGAATGGGAGATGGTAAGAGGCAACTGGTTGGCTAAGTAAACAGCAAAAAATAGCTTTAGGTTCAGAGTCTTTCCTTGATTTCCTCTCAATAGCTCTGAGCATAGTCCTACCGCAATTTGTAGTATAAAAACATAACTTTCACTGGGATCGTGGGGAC	0.352 ratio
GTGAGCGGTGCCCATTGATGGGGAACCTCTTGTGATGAAAATTAAAGTTGTTATATAATCTCTATTATATAGTAAAATGATTTTTTTCTCAGGAATTACATCAACTCAAAGAAGTCTCTGTTTACTTTGACATCTGAACTTTCACTTTATCCGCTAGTTATAATTCCTTGGTTATCATTATCATTACATAAATTTTTCTTTCTGAAAATGGATGATAGTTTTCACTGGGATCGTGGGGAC	0.393 ratio

Set 4 — technique: RNA Bind-n-Seq; molecule type: RNA; medium: in vitro; tested at: 200 nM; notes: whole 134-nt RNA, ends assumed; with: 150 mM KCl; reference: input library; direction: higher = stronger binding
Target: Ras GTPase-activating protein-binding protein 1, full length (G3BP1, Homo sapiens, UniProt Q13283)
Chain of UniProt Q13283 (whole entry, looked up): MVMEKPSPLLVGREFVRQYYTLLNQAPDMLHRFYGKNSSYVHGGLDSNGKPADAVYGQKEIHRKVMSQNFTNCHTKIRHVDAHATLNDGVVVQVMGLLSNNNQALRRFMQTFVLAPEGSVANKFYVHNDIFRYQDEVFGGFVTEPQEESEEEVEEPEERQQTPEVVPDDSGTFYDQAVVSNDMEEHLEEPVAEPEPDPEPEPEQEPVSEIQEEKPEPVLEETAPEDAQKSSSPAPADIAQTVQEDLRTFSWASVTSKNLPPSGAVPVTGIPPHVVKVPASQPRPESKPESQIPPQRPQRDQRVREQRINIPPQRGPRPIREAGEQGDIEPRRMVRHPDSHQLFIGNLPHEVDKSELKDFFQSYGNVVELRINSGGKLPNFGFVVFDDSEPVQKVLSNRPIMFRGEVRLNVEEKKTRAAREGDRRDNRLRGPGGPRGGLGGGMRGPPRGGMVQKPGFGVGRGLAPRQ
Oligonucleotide	log2 enrichment
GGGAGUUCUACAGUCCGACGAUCUUUGACGCGGUGUGUUACGUGGGGGAGAGAAUAAAACUCCAGCGAGAUCCGGGCCGUGAACGAAAGCAGUGACGGAGGAGCUUGUACCACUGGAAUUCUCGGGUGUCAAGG	0.556
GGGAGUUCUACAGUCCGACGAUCUCAAGUCCUGUGCUACACAUCGUAUGUACCGAAUCGGGCCGGGGCCGGCCGGGGAAAGUAUUAUGUUACGCCGUUCGGAUCUGCACUUCCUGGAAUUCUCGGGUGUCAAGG	-0.397
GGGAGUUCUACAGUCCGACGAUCCCUCAAGUCCUGUGCUACACAUCGUAUGUACCGAAUCGGUGGAGGUUUUUGGAAAGUAUUAUGUUACGCCGUUCGGAUCUGCACUUCCAGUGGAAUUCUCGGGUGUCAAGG	-0.158
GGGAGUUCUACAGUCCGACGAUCUGGGAGGUGGAUUUUGUUUAUUUUUUUAGCUCAUUUCCAGGGGUGGGAAUUUUUCUUUAAUAUGUGUCAUGAAUAAAGUUGUUUUUGAAAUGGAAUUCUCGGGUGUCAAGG	0.286
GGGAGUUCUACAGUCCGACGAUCAAGUCCUGUGCUACACAUCGUAUGUACCGAAUCGGGCCCCGGGCCCCGGCCCCGGGAAAGUAUUAUGUUACGCCGUUCGGAUCUGCACUUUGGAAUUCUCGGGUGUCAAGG	-1.18
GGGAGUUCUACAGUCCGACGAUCAAGUCCUGUGCUACACAUCGUAUGUACCGAAUCGGUUUUGGGUUUUGGGUUUUGGGAAAGUAUUAUGUUACGCCGUUCGGAUCUGCACUUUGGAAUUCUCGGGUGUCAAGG	-0.923
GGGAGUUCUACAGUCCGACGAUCGAAGGAAGUAAAAACAAAUGGAAAUGCUUCGGAUAGUGGCAGGGGUGGGGGUUGCUAAGGAAAGGGUGGGAUGGGAGUGGGUAAAGAGUUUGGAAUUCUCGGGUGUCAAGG	0.737
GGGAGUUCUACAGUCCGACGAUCGUCCUGUGCUACACAUCGUAUGUACCGAAUCGGGGUUUUUGGGGAAAAAGGGGUGGGGAAAGUAUUAUGUUACGCCGUUCGGAUCUGCACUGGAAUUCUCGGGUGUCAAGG	0.437
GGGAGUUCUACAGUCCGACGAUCUUCUGAGAAGGUUGCGCAGCAGCUGUGCCCGGCAGUCUAGAGGCGCAGAAGAGGAAGCCAUCGCCUGGCCCCGGCUCUCUGGACCUUGUCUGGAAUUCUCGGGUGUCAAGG	-1.13
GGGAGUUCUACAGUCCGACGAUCCCUGUGCUACACAUCGUAUGUACCGAAUCGGAAAAAAGGGGAAAAAAGGGAAAAAAGGGGAAAGUAUUAUGUUACGCCGUUCGGAUCUGCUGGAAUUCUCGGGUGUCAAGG	-0.754
